Measurements gathered from unrelated publications.
Values joined by “and” are separate records of one study, mostly repeats; a detail may differ. Numbers after ± are the reported error.
Chain of UniProt Q9UNQ0 (whole entry, looked up): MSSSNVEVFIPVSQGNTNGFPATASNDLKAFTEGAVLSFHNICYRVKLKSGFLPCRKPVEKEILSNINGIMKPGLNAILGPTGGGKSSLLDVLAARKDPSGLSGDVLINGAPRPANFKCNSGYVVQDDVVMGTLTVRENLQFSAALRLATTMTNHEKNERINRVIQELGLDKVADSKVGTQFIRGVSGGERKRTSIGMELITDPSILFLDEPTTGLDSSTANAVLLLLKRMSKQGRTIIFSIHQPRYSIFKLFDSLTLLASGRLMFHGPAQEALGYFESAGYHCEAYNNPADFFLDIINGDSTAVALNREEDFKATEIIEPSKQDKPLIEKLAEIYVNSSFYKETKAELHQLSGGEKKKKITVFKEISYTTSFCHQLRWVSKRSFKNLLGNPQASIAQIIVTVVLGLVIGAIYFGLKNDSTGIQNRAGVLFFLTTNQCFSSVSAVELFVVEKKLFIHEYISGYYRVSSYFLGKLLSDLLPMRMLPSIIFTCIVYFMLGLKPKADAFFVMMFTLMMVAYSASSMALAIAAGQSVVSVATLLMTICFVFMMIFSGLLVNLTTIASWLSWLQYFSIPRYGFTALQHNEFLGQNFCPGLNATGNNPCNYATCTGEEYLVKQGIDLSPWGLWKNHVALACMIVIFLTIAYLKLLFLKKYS

SMILES | target or system | assay | test system | conditions | endpoint | result
Cc1ccc(N2CCC3(CC2)CN(C)C3)cc1C(=O)N[C@H](C)c1cc(-c2cnn(C)c2)nc2ccccc12 | Vero E6 | – | – | 15.62 µM | viability | 101% and 94.3% and 98.4%
NC[C@]1(CC(=O)O)CC[C@H]([18F])CC1 | – | PET, one-tissue model | rhesus monkey, occipital gyrus | intravenous | K1 | 0.0059 mL/min/cm3
CCn1ccc(-c2cc([C@@H](C)NC(=O)c3cc(N4CCN(C)CC4)ccc3C)c3ccccc3n2)n1 | Vero E6 | – | – | 7.812 µM | viability | 91.5% and 88.5% and 91.9%
O=C1NC2(CC2)COc2ncc(F)cc2[C@H]2COCCN2c2ccn3ncc1c3n2 | – | – | Sprague-Dawley rat, female, blood | oral, 5 mg/kg/day, 4 weeks, end of recovery, subacute toxicity | mean corpuscular volume | 56.7 ± 1.6 fL
Cc1ccc(OC[C@@H]2CCN2C)cc1C(=O)N[C@H](C)c1cc(-c2cnn(C)c2)nc2ccccc12 | African green monkey cells | – | – | 3.906 µM | viability | 101%
CC[C@H](C)[C@H](NC(=O)[C@H](CCCCN)NC(=O)CNC(=O)[C@H](CC(C)C)NC(=O)[C@H](Cc1ccccc1)NC(=O)[C@H](CCCCN)NC(=O)[C@H](CO)NC(=O)[C@H](Cc1ccccc1)NC(=O)[C@H](Cc1c[nH]c2ccccc12)NC(=O)[C@H](CCC(N)=O)NC(=O)[C@@H](NC(=O)[C@H](Cc1ccccc1)NC(=O)CCCCCNC(=O)CN1CCN(CC(=O)O)CCN(CC(=O)O)CCN(CC(=O)O)CC1)C(C)C)C(=O)N[C@@H](CCC(=O)O)C(=O)N1CCC[C@H]1C(=O)N[C@H](CC(=O)O)C(=O)N[C@H](C(=O)N[C@@H](CO)C(=O)N[C@@H](CCC(N)=O)C(=O)N[C@H](C(=O)N[C@@H](CCC(N)=O)C(=O)N[C@@H](CC(=O)O)C(=O)N1CCC[C@H]1C(=O)N[C@@H](CC(N)=O)C(=O)N[C@@H](CC(=O)O)C(=O)N[C@@H](CCC(N)=O)C(=O)N[C@@H](Cc1ccc(O)cc1)C(=O)N[C@@H](CCC(=O)O)C(=O)N1CCC[C@H]1C(=O)N[C@@H](Cc1ccccc1)C(=O)O)C(C)C)C(C)C [copper-64 labelled] | – | – | C57BL/6 mice, male, MC-38 tumour-bearing, spleen | 2 h, checkpoint inhibitor-treated | tissue uptake | 0.43 ± 0.02 %ID/g
Nc1c2c(nc3sc4c(c13)CCCCC4)CCCC2 | CHO | cytotoxicity | – | 3 days | IC50 | > 10 µM
Cc1ccc(OCCN(C)C)cc1C(=O)N[C@H](C)c1cc(-c2cccs2)nc2ccccc12 | Vero E6 | – | – | 250 µM | viability | 10.6% and 10.2%
Cc1nc2cccc(OCC(C)(C)C(=O)NC(C)C)c2c(N)c1C(=O)[O-].[Na+] | Salmonella typhimurium | – | TA1537 | 0.80 mg per plate, without S9, preincubation | revertant colonies per plate | 13 ± 3
Oc1ccc2c3c1O[C@H]1[C@@H](O)CC[C@H]4[C@@H](C2)N(CC2CCC2)CC[C@@]341 | – | PAMPA-BBB | porcine brain lipid | 500 µM, 4 h, pH 7.4, 1% DMSO | Papp | 10.9 ×10⁻⁶ cm/s
CC(=O)NCCCC[C@@H]1NC(=O)[C@H](Cc2c[nH]c3c(C)cccc23)NC(=O)[C@H]([C@@H](C)O)NC(=O)[C@H](CC(N)=O)NC(=O)[C@@H](NC(C)=O)C(C)(C)SSC(C)(C)[C@@H](C(=O)N[C@@H](Cc2ccc(OCCN)cc2)C(=O)N[C@@H](Cc2ccc3ccccc3c2)C(=O)NC2(C(=O)N[C@@H](CCC(=O)O)C(=O)N[C@@H](CC(N)=O)C(=O)N[C@@H](Cc3cccnc3)C(=O)N(C)CC(N)=O)CCOCC2)NC1=O | Broad substrate specificity ATP-binding cassette transporter ABCG2 (ABCG2, Homo sapiens, UniProt Q9UNQ0) | transport, inhibitor | LLC-PK1 expressing ABCG2 | 8.48 µM, 90 min, with: [3H]prazosin | efflux ratio | 10.8
CN(C)CCCNC(=O)[C@@H]1NC(=O)[C@@H]2Cc3ccc(cc3)Oc3cc4cc(c3O)-c3ccc5c(c[nH]c5c3)C[C@@H](NC(=O)C(NC(=O)CCCCCN)c3ccc(O)cc3)C(=O)N[C@H](c3ccc(O)cc3)C(=O)N[C@H]4C(=O)N[C@@H](C(=O)N2C)c2ccc(cc2)Oc2cc1ccc2O (stereo partly drawn) | human red blood cells | – | – | 16 µg/mL, 1 h, 37 °C, 1% DMSO | hemolysis | 1.42%

Excerpt of the above:
SMILES | target or system | assay | test system | conditions | endpoint | result
Cc1nc2cccc(OCC(C)(C)C(=O)NC(C)C)c2c(N)c1C(=O)[O-].[Na+] | Salmonella typhimurium | – | TA1537 | 0.80 mg per plate, without S9, preincubation | revertant colonies per plate | 13 ± 3
